Earlier results as cited in several papers.
± gives the spread as reported.

COC(=O)C1=CO[C@@H](O[C@@H]2O[C@H](CO)[C@@H](O)[C@H](O)[C@H]2O)[C@@H]2[C@@H](C)[C@@H](O)C[C@H]12  IC50 (BACE1; enzyme activity, non-competitive inhibitor): 48 µM
CC(C)(C)c1ccc(/C=C/C(=O)Nc2cccc3cnccc23)cc1  IC50 (TRPV1; calcium flux, antagonist; HEK293; together with: capsaicin): 0.005 µM
C/C(=N\NC(=O)c1cccc(S(=O)(=O)N2CCN(C)CC2)c1)c1cc(Cl)ccc1O  IC50 (LSD1; reversible inhibitor): ~0.031 µM
Fc1c(-c2cccc3cccc(F)c23)ncc2c(N3C[C@H]4CC[C@@H](C3)N4)nc(OC[C@@]34CCCN3C[C@H](F)C4)nc12  IC50 (KRAS): 0.012 µM
Cc1ccc2[nH]c(-c3ccc(S(N)(=O)=O)cc3)c(-c3ccccc3)c2c1  IC50 (COX-2): 2e-05 µM
COC(=O)c1cc(O)c(O)c(O)c1  IC50 (xanthine oxidase; inhibitor): 212 ± 0.4 µM
O=C(Nc1cccc(C(F)(F)F)c1)Nc1cccc2cnccc12  IC50 (TRPV1; calcium flux, antagonist; HEK293; together with: capsaicin): 0.032 µM
COc1cc2c(Nc3ccc(Cl)c(Cl)c3F)ncnc2cc1OC[C@@H]1C[C@@H]2CN(C)C[C@@H]2C1  IC50 (EGFR wild type): 0.0003 µM
CC(C)C(=O)Nc1nc(-c2ccc(O)cc2O)cs1  IC50 (human tyrosinase; inhibitor): ~1 µM
C[C@H](NC(=O)[C@H](CC(=O)NCC(C)(C)C)NC(=O)c1ccc(C(=O)NO)cc1)C(=O)NCc1ccccc1  IC50 (proteasome; chymotrypsin-like activity, inhibitor; HL-60): 0.26 µM
O=S(=O)(Nc1cc(Cl)ccc1SCc1cccc(O)c1)c1cc2ccccc2o1  IC50 (CCR2; 3D-QSAR training set): 0.076 µM
O=C(O)c1cc(N2N=C(C(F)(F)F)/C(=C/c3ccc(-c4ccccc4)o3)C2=O)ccc1Cl  IC50 (MAO-A; inhibitor): 7.9 µM
O=C(c1ccc([N+](=O)[O-])cc1)N1CCC(n2cncc2-c2ccc(OS(=O)(=O)c3cccc4cnccc34)cc2)CC1  IC50 (P2X7 receptor; fluorescence): 0.00149 ± 0.00017 µM
CN(CCN)Cc1csc(-c2ccc(C(=N)N)nc2)n1  IC50 (CARM1 (PRMT4); enzyme activity, inhibitor): 1.64 µM
CN(C)CCCN1c2ccccc2CCc2ccccc21  IC50 (sigma-1 receptor; literature value): 0.3 µM
COC1CC2CCC(C)C(O)(O2)C(=O)C(=O)N2CCCCC2C(=O)OC(C(C)CC2CCC(OCCO)C(OC)C2)CC(=O)C(C)/C=C(\C)C(O)C(OC)C(=O)C(C)CC(C)/C=C/C=C/C=C/1C (stereo not drawn)  IC50 (mTOR; cell-free; together with: FKBP12): 0.0016 to 0.0024 µM
CO[C@@H]1COCC[C@@H]1N[C@@H]1C[C@H]2CCC[C@@]2(C(=O)N2C[C@@H]3C[C@H]2CN3c2ccc(C#N)c(C(F)(F)F)c2)C1  IC50 (CCR2; 3D-QSAR training set): 0.0553 µM
COc1ccc2cc3[n+](cc2c1OC)CCc1cc2c(cc1-3)OCO2  IC50 (PTP1B): ~22 µM
COc1cc2ccc(=O)oc2cc1O[C@@H]1O[C@H](CO[C@@H]2OC[C@](O)(CO)[C@H]2O)[C@@H](O)[C@H](O)[C@H]1O  IC50 (carbonic anhydrase IX): ~0.09 µM
CCN1CCN(c2cc(N3CCN(CC)CC3)nc(NCCNc3ccnc4cc(Cl)ccc34)n2)CC1  IC50 (NR4A2; binding, radioligand binding): 0.05 µM
CC(=O)N1CCc2c(c(N3CCCc4cc(-c5cnn(C)c5)c(C(F)F)cc43)nn2C2CCOCC2)C1  IC50 (mTOR): 0.28 µM
COc1ccc(CNc2c(CO)cnc3c(C4CC4)cc(C#N)cc23)cc1Cl  IC50 (PDE3; inhibitor): > 10 µM
O=c1[nH]nc(OCCCc2ccc(Cl)cc2)c(NCc2cccnc2)c1Br  IC50 (PDE3; enzyme activity, inhibitor): 0.00026 µM
O=C(O)/C=C/c1ccc(O)c(O)c1  IC50 (xanthine oxidase; inhibitor): 204 ± 1.2 µM
NCCCS(=O)(=O)O  IC50 (taurine transporter TauT; transport function, inhibitor; literature value): 3400 µM
CN(C)CCC=C1c2ccccc2CCc2ccccc21  IC50 (Kv7.2/7.3 channel; inhibitor): 10 µM
C[C@@H]1O[C@@H](OC[C@H]2O[C@@H](Oc3c(-c4ccc(O)c(O)c4)oc4cc(O)cc(O)c4c3=O)[C@H](O)[C@@H](O)[C@@H]2O)[C@H](O)[C@H](O)[C@H]1O  IC50 (Zika virus NS2B-NS3 protease; enzyme activity, inhibitor; pH 7.0): 104 ± 2.9 µM
NC(=O)C(NC1CCC(c2c[nH]c3ccccc23)CC1)C1CCN(C(=O)Nc2ccc(OC(F)(F)F)cc2)CC1 (stereo not drawn)  IC50 (CCR2; 3D-QSAR training set): 0.264 µM
Oc1ccc(/C=C/c2cc(O)cc(O)c2)cc1  IC50 (cyclooxygenase): 1.1 µM
O=C(Nc1ccc2c(c1)NC(=O)C(CCO)O2)C1CCN(c2cc(F)c(F)c(F)c2)CC1 (stereo not drawn)  IC50 (TRPV1; calcium flux, antagonist; HEK293; together with: capsaicin): 0.005 µM
Nc1ncnc2c1ncn2[C@@H]1O[C@H](COP(=O)(O)CP(=O)(O)OP(=O)(O)O)[C@@H](O)[C@H]1O  IC50 (P2X purinergic receptor; binding; historical reference value): 0.082 µM
CCC(C)(C)c1ccc(CCC(=O)Nc2cccc3cnccc23)cc1  IC50 (TRPV1; calcium flux, antagonist; HEK293; together with: capsaicin): 0.013 µM
CN(C)C(=O)CCc1nc(-c2ccccc2)c(-c2ccccc2)o1  IC50 (NR4A3 (NOR-1); inverse agonist, cellular): 39 ± 5 µM
CCN(CC)CCCCNc1ncc2cc(-c3cc(OC)cc(OC)c3)c(NC(=O)NC(C)(C)C)nc2n1  IC50 (MEK; inhibitor): > 50 µM
Fc1ccc([C@@H]2CCNC[C@H]2COc2ccc3c(c2)OCO3)cc1  IC50 (sigma-2 receptor; literature value): 23 µM
COc1cccc(-c2cc(F)ccc2[C@H]2Cc3nc(N)nc(C)c3C(=O)N2)n1  IC50 (Hsp90β; inhibitor): 0.0008 µM
Cc1ccc2nc(NC(=O)CSc3nc4c(c(=O)n3-c3ccc(F)cc3)SCC4)sc2c1  IC50 (casein kinase 1 delta; inhibitor): 1.89 µM
CN1CCC(c2cc(-c3ccncc3)c(-c3ccc(F)cc3)[nH]2)CC1  IC50 (Plasmodium falciparum PKG; kinase activity, inhibitor; together with: peptide substrate): 0.00853 µM
O=C(O)c1cc(O)c(O)c(O)c1  IC50 (xanthine oxidase; inhibitor): 200 ± 0.32 µM
O=C(NCCc1ccc(OC(F)(F)F)cc1)Nc1cccc2cnccc12  IC50 (TRPV1; calcium flux, antagonist; HEK293; together with: capsaicin): 0.011 µM
CN(C)CCCC1(c2ccc(F)cc2)OCc2cc(C#N)ccc21 (stereo not drawn)  IC50 (sigma-2 receptor; literature value): 5 µM
O=S(=O)(c1ccccc1)N(CC(F)(F)F)c1ccc(C(O)(C(F)(F)F)C(F)(F)F)cc1  IC50 (pregnane X receptor, human; binding): 0.102 µM
CC(C)(C)c1ccc(NC(=O)c2ccc(-c3ncccc3F)cc2)cc1  IC50 (TRPV1; calcium flux, antagonist; HEK293; together with: capsaicin): 0.003 µM
COc1ccc(-c2ccc3ncc4c(c3c2)n(-c2ccc(N3CCNCC3)c(C(F)(F)F)c2)c(=O)n4C)cn1  IC50 (mTOR): 0.02 µM
O=C(NCc1ccc(C(F)(F)F)cc1Oc1ccccc1)Nc1cccc2[nH]ncc12  IC50 (TRPV1; calcium flux, antagonist; HEK293; together with: capsaicin): 0.009 µM
CC(C)=CCC/C(C)=C/CNCCNC1C2CC3CC(C2)CC1C3 (stereo not drawn)  IC50 (Mycobacterium tuberculosis cis-farnesyl diphosphate synthase; enzyme activity, inhibitor): ≥ 50 µM
Cc1onc(-c2ccccc2)c1-c1ccc(S(N)(=O)=O)cc1  IC50 (NR4A2 (Nurr1); inverse agonist, cellular): 13 ± 3 µM
CC(C)(C)c1ccc(NC(=O)N2CCN(c3ncccc3Cl)CC2)cc1  IC50 (TRPV1; calcium flux, antagonist; HEK293; together with: capsaicin): 0.005 µM
CCOc1c([C@H](C)n2nc(C)c3c(N)ncnc32)cc(Cl)c(F)c1[C@@H]1CNC(=O)C1  IC50 (PI3Kdelta): 0.001 µM
Nc1ncnc2c1ncn2[C@@H]1O[C@H](COP(=O)(O)CP(=O)(O)OP(=O)(O)O)[C@@H](O)[C@H]1O  IC50 (P2X purinergic receptor; radioligand binding): 0.082 µM
CN(CCCNC(=O)CNc1cccc2c1C(=O)N(C1CCC(=O)NC1=O)C2=O)CCCC(=O)N1CCC[C@@H](n2nc(-c3ccc(Oc4ccccc4)cc3)c3c(N)ncnc32)C1 (stereo partly drawn)  IC50 (BTK; target engagement, NanoBRET; HEK-293T expressing BTK-NanoLuc; 2 h, together with: tracer 1 µM): 1.27 µM

Some of these lines once more:
C[C@H](NC(=O)[C@H](CC(=O)NCC(C)(C)C)NC(=O)c1ccc(C(=O)NO)cc1)C(=O)NCc1ccccc1  IC50 (proteasome; chymotrypsin-like activity, inhibitor; HL-60): 0.26 µM
COc1cc2c(Nc3ccc(Cl)c(Cl)c3F)ncnc2cc1OC[C@@H]1C[C@@H]2CN(C)C[C@@H]2C1  IC50 (EGFR wild type): 0.0003 µM
O=S(=O)(Nc1cc(Cl)ccc1SCc1cccc(O)c1)c1cc2ccccc2o1  IC50 (CCR2; 3D-QSAR training set): 0.076 µM
